Measurements from different studies.
Each line is one published result; not all experiments were run side by side. ± gives the spread as reported. Converted amounts (≈) assume the structure as drawn.
Txnrd1: Thioredoxin reductase 1, cytoplasmic (Txnrd1, Rattus norvegicus, UniProt O89049)
ABCB1: ATP-dependent translocase ABCB1 (ABCB1, Homo sapiens, UniProt P08183)
Cytochrome P450 2A13: Cytochrome P450 2A13 (Homo sapiens, UniProt Q16696)

`COc1ccc(N2C(=O)N(c3c(C)cccc3Cl)Cc3cnc(Nc4ccc(C5CCN(C)CC5)cc4OC)nc32)nc1` gave an inhibition of -3.54% (PRKX (Homo sapiens, UniProt P51817); kinase activity; 0.5 µM).
With `CC(=O)c1c(O)c(C)c(O)c(Cc2c(O)c3c(c(C(=O)/C=C/c4ccccc4)c2O)OC(C)(C)C=C3)c1O` the kinact/KI was 5 ± 0.667 M⁻¹ s⁻¹ (Txnrd1; inhibitor).
The inhibition of `CC(C)CN(C[C@@H](O)[C@H](Cc1ccccc1)NC(=O)O[C@H]1CO[C@H]2OCC[C@H]21)S(=O)(=O)c1ccc(N)cc1` is reported as 86.3% (ABCB1; transport, inhibitor; 100 µM, 5 (unit not given), pH 7, added: NMN).
`Clc1ccc(-c2cc(Cl)ccc2Cl)cc1` gave an EC25 of 5 µM (Nuclear receptor subfamily 1 group I member 3 (Homo sapiens, UniProt Q14994); CYP2B6 mRNA induction, activator, qRT-PCR; differentiated HepaRG; 24 h; relative to: phenobarbital).
`CC(C)C[C@@H]1NC(=O)[C@H](CC(C)C)NC(=O)[C@H](Cc2c[nH]c3ccccc23)NC(=O)[C@H](CO)NC(=O)[C@H](Cc2c[nH]c3ccccc23)NC(=O)[C@@H]2CCCN2C(=O)[C@H](CC(C)C)NC(=O)[C@H](Cc2c[nH]cn2)NC(=O)[C@@H]2CCCN2C(=O)[C@H](CC(N)=O)NC(=O)[C@H](C)NC(=O)[C@H](Cc2ccc(O)cc2)NC(=O)[C@H](CS)NC(=O)[C@H](CCCCNC(=O)CN2CCN(CC(=O)O)CCN(CC(=O)O)CCN(CC(=O)O)CC2)NC1=O` [lutetium-177 labelled] gave a tumour uptake of 4.79 %ID (BALB/c mice, 4T1 tumour; iv, 3.7 MBq, 96 h, unblocked).
The tissue uptake of `C[C@@H](O)[C@@H](CO)NC(=O)[C@@H](CCCNC(=N)N)NC(=O)[C@@H]1CCCN1C(=O)[C@@H]1CSSC[C@H](NC(=O)[C@H](Cc2ccccc2)NC(=O)CN2CCN(CC(=O)O)CCN(CC(=O)O)CCN(CC(=O)O)CC2)C(=O)N[C@@H](Cc2ccc(O)cc2)C(=O)N[C@@H](Cc2ccccc2)C(=O)N[C@@H](CCC(N)=O)C(=O)N[C@@H](CC(N)=O)C(=O)N1` [gallium-68 labelled] is reported as 1.01 %ID/g (healthy Wistar rat, blood; intravenous, 8 MBq, 60 min, individual animals).
`C#CCOCc1cccc2ccccc12` has an IC50 of less than 20 µM (Cytochrome P450 2A13; enzyme activity, inhibitor; added: 10 µM coumarin).
The Ki of `C=CC1CO1` (stereo not shown) is reported as 42 µM (Cytochrome P450 2E1 (Cyp2e1, Rattus norvegicus, UniProt P05182); 4-nitrophenol oxidation, inhibitor; F344 rat, liver microsomes; binding to substrate-bound enzyme).
`CC[C@H](C)[C@H](NC(=O)[C@H](Cc1ccccc1)NC(=O)[C@H](CCC(=O)O)NC(=O)[C@H](CCCCN)NC(=O)[C@H](C)NC(=O)[C@H](C)NC(=O)[C@H](CCC(N)=O)NC(=O)CNC(=O)[C@H](CCC(=O)O)NC(=O)[C@H](CC(C)C)NC(=O)[C@H](Cc1ccc(O)cc1)NC(=O)[C@H](CO)NC(=O)[C@H](CO)NC(=O)[C@@H](NC(=O)[C@H](CC(=O)O)NC(=O)[C@H](CO)NC(=O)[C@@H](NC(=O)[C@H](Cc1ccccc1)NC(=O)[C@@H](NC(=O)CNC(=O)[C@H](CCC(=O)O)NC(=O)[C@H](C)NC(=O)N(N)Cc1c[nH]cn1)[C@@H](C)O)[C@@H](C)O)C(C)C)C(=O)N[C@@H](C)C(=O)N[C@@H](Cc1c[nH]c2ccccc12)C(=O)N[C@@H](CC(C)C)C(=O)N[C@H](C(=O)N[C@@H](CCCNC(=N)N)C(=O)NCC(=O)N[C@@H](CCCNC(=N)N)C(=O)NCC(=O)O)C(C)C` gave a remaining peptide of 100% (DPP4 (Homo sapiens, UniProt P27487); HPLC-UV; Tris-HCl; 0.1 mM, 1 h, pH 7.4, 37 °C, added: DPP4 16 nM).
`CC[C@H](C)[C@@H]1NC(=O)[C@@H]2CCCN2C(=O)[C@H](CC(C)C)NC(=O)[C@H](CC(C)C)NC(=O)CNC(=O)[C@@H](NC(=O)[C@@H](NC(=O)[C@H](CC(=O)O)NC(=O)CNC(=O)[C@@H](NC(=O)[C@H](C)NC(=O)CNC(=O)[C@H](CCCCN)NC(=O)[C@H](CC(C)C)NC(=O)[C@H](CC(C)C)NC(=O)[C@H](CCCCN)NC(=O)CNC(=O)[C@@H](NC(=O)[C@@H](N)CC(C)C)C(C)C)C(C)C)C(C)C)CSSC[C@@H](C(=O)O)NC1=O`: “log2 fold change” -1.8 (RNA-seq, item: Zc3h12d mRNA; mouse traumatic brain injury, frontal cortex and hippocampus; dose not given; relative to: TBI plus compound vs TBI).
The IC50 of `c1ccc2cc3c(ccc4ccccc43)cc2c1` is reported as greater than 200 µM (Cytochrome P450 2A13; enzyme activity, inhibitor; added: 10 µM coumarin).
`COc1cc2c(Oc3ccc4[nH]c(C)cc4c3F)ccnc2cc1OCC1(N)CC1` — result for “grade 3 ALT elevation”: 0% (paediatric recurrent refractory sarcoma; 8 mg).
With `O=C1c2c(O)c(=O)ccn2N([C@@H]2c3ccccc3SCc3c2ccc(F)c3F)[C@@H]2COCCN12` the Cmax was 56.5 ng/mL (BALB/c mouse; subcutaneous, 1 mg/kg q24h).
`O=C1CCC(N2C(=O)c3ccccc3C2=O)C(=O)N1` (stereo not shown) has an inhibition of 60.5% (ABCB1; transport, inhibitor; 100 µM, 5 (unit not given), pH 7, added: NMN).
With `C[C@H]1CN(c2n[nH]c3nc(N[C@H]4CC[C@H](NS(=O)(=O)CCC(F)(F)F)CC4)ncc23)CCO1` the remaining binding was 1.12 (Splicing factor 3B subunit 3 (Homo sapiens, UniProt Q15393); Kinobeads competition, item: SF3B3; 0.8 µM, unit not given; relative to: vehicle).
`CC[C@H](C)[C@H](NC(=O)[C@H](Cc1ccccc1)NC(=O)[C@H](CCC(=O)O)NC(=O)[C@H](CCCNC(=N)N)NC(=O)[C@H](C)NC(=O)[C@H](C)NC(=O)[C@H](CCC(N)=O)NC(=O)[C@H](CCC(=O)O)NC(=O)[C@H](CCC(=O)O)NC(=O)[C@H](CC(C)C)NC(=O)[C@H](Cc1ccc(O)cc1)NC(=O)[C@H](CO)NC(=O)[C@H](CO)NC(=O)[C@@H](NC(=O)[C@H](CC(=O)O)NC(=O)[C@H](CO)NC(=O)[C@@H](NC(=O)[C@H](Cc1ccccc1)NC(=O)[C@@H](NC(=O)CNC(=O)[C@H](CCC(=O)O)NC(=O)[C@H](C)NC(=O)CCc1c[nH]cn1)[C@@H](C)O)[C@@H](C)O)C(C)C)C(=O)N[C@@H](C)C(=O)N[C@@H](Cc1c[nH]c2ccccc12)C(=O)N[C@@H](CC(C)C)C(=O)N[C@H](C(=O)N[C@@H](CCCNC(=N)N)C(=O)NCC(=O)N[C@@H](CCCNC(=N)N)C(=O)N[C@@H](CCCCNC(=O)COCCOCCNC(=O)COCCOCCNC(=O)CC[C@H](NC(=O)CCCCCCCCCCCCCCCCC(=O)O)C(=O)O)C(=O)NCC(=O)NCC(=O)N[C@@H](CO)C(=O)N[C@@H](CCCCNc1c(NCCCCCN(O)C(=O)CCC(=O)NCCCCCN(O)C(=O)CCC(=O)NCCCCCN(O)C(C)=O)c(=O)c1=O)C(=O)O)C(C)C` [zirconium-89 labelled] has a tissue uptake of 0.66 %ID/g (rat, blood; sc, 3 nmol/kg, 4 h, ex vivo).
The median ratio of `O=C(c1ccc(Cl)cc1)N1CCN2C(=O)N(OC(=O)N3CCOc4ccccc43)C(=O)C2C1` (stereo not shown) is reported as 1.09 (PLA2G15 (Homo sapiens, UniProt Q8NCC3); enzyme activity, inhibitor, MS-based ABPP; SW-620 conditioned medium; 10 µM, 1 h, 37 °C; relative to: compound over DMSO, lower = stronger inhibition).
For `C#CCOCCc1ccc2ccccc2c1`, the IC50 was 0.4 to 10 µM (Cytochrome P450 2A13; enzyme activity, inhibitor; added: 10 µM coumarin).
The inhibition of `CN(C)C(=O)COC(=O)Cc1ccc(OC(=O)c2ccc(NC(=N)N)cc2)cc1` is reported as 73.9% (ABCB1; transport, inhibitor; 100 µM, 5 (unit not given), pH 7, added: NMN).
The remaining activity of `C[C@@H]1CC[C@]2(C(=O)O)CC[C@]3(C)C(=CC[C@@H]4[C@@]5(C)CC[C@H](O)[C@@](C)(CO)[C@@H]5CC[C@]43C)[C@@H]2[C@]1(C)O` is reported as 74.8% (CYP3A4/5; midazolam 1'-hydroxylation, mechanism-based inhibitor, probe cocktail incubation; pooled human liver microsomes; 50 µM, 20 min, 30 min pre-incubation, added: midazolam 1.535 µM).
With `CCC(CC)COC(=O)[C@H](C)N[P@](=O)(OC[C@H]1O[C@@](C#N)(c2ccc3c(N)ncnn23)[C@H](O)[C@@H]1O)Oc1ccccc1` the inhibition was 88% (ABCB1; transport, inhibitor; 100 µM, 5 (unit not given), pH 7, added: NMN).
`C#CCOCCc1cccc2ccccc12` has an IC50 of 15 to 80 µM (Cytochrome P450 2A13; enzyme activity, inhibitor; added: 10 µM coumarin).
For `Cc1cc2nc3c(=O)[nH]c(=O)nc-3n(C[C@H](O)[C@H](O)[C@H](O)COP(=O)(O)O)c2cc1C`, the midpoint potential was -208 ± 13 mV (Iodotyrosine deiodinase (Haliscomenobacter hydrossis, UniProt F4KU78, R38K); bound cofactor redox, redox titration; pH 7.4, 25 °C, anaerobic, no substrate).
The inhibition of `CCCCc1nc(Cl)c(CO)n1Cc1ccc(-c2ccccc2-c2nn[nH]n2)cc1` is reported as 43.9% (ABCB1; transport, inhibitor; 100 µM, 5 (unit not given), pH 7, added: NMN).
For `CS(=O)(=O)Nc1ncn(-c2cc(F)c(COc3ccc(OS(=O)(=O)F)cc3)c(F)c2)n1`, the IC50 was greater than 50 µM (CYP isoforms (human); enzyme activity, inhibitor).
The inhibition of `Cc1oncc1C(=O)Nc1ccc(C(F)(F)F)cc1` is reported as 13.7% (ABCB1; transport, inhibitor; 100 µM, 5 (unit not given), pH 7, added: NMN).
For `COc1cc(Nc2ncc(F)c(Nc3ccc4c(n3)NC(=O)C(C)(C)O4)n2)cc(OC)c1OC`, the IC50 was greater than 10 µM (Txnrd1; inhibitor).
The inhibition of `N#CC[C@H](C1CCCC1)n1cc(-c2ncnc3[nH]ccc23)cn1` is reported as -7.8% (ABCB1; transport, inhibitor; 100 µM, 5 (unit not given), pH 7, added: NMN).
With `CC(C)CC(=O)OC[C@H]1O[C@@](C#N)(c2ccc3c(N)ncnn23)[C@H](O)[C@@H]1O` the half-life was 20 ± 0.784 min (Cytochrome P450 3A5 (CYP3A5, Homo sapiens, UniProt P20815); metabolic stability; recombinant enzyme; 1 µM).
`O=C1CC(c2ccccc2)Oc2ccccc21` (stereo not shown) has an IC50 of 0.4 to 10 µM (Cytochrome P450 2A13; enzyme activity, inhibitor; added: 10 µM coumarin).
`CC[C@H](C)[C@H](NC(=O)[C@H](C)NC(=O)[C@H](CCCCN)NC(=O)[C@H](CC(C)C)NC(=O)[C@H](C)NC(=O)[C@@H](NC(=O)[C@H](Cc1c[nH]cn1)NC(=O)[C@H](CC(C)C)NC(=O)[C@@H](NC(=O)[C@@H](NC(=O)[C@H](CCCCN)NC(=O)[C@H](C)NC(=O)[C@H](C)NC(=O)[C@H](CO)NC(=O)[C@H](CCCCN)NC(=O)[C@H](Cc1ccccc1)NC(=O)[C@@H](NC(=O)[C@H](CCCCN)NC(=O)[C@H](CC(C)C)NC(=O)[C@H](Cc1ccccc1)NC(=O)[C@H](CO)NC(=O)[C@H](CCCCN)NC(=O)[C@H](Cc1c[nH]c2ccccc12)NC(=O)[C@H](CCCCN)NC(C)=O)[C@@H](C)O)[C@@H](C)O)C(C)C)[C@@H](C)O)C(=O)N[C@@H](CO)C(=O)N[C@@H](CO)C(N)=O` has an MBC90 of 32 µg/mL (≈ 10.9 µM) (Pseudomonas aeruginosa; 43 strains).

Some of these lines once more:
`CC(C)C[C@@H]1NC(=O)[C@H](CC(C)C)NC(=O)[C@H](Cc2c[nH]c3ccccc23)NC(=O)[C@H](CO)NC(=O)[C@H](Cc2c[nH]c3ccccc23)NC(=O)[C@@H]2CCCN2C(=O)[C@H](CC(C)C)NC(=O)[C@H](Cc2c[nH]cn2)NC(=O)[C@@H]2CCCN2C(=O)[C@H](CC(N)=O)NC(=O)[C@H](C)NC(=O)[C@H](Cc2ccc(O)cc2)NC(=O)[C@H](CS)NC(=O)[C@H](CCCCNC(=O)CN2CCN(CC(=O)O)CCN(CC(=O)O)CCN(CC(=O)O)CC2)NC1=O` [lutetium-177 labelled] gave a tumour uptake of 4.79 %ID (BALB/c mice, 4T1 tumour; iv, 3.7 MBq, 96 h, unblocked).
The tissue uptake of `C[C@@H](O)[C@@H](CO)NC(=O)[C@@H](CCCNC(=N)N)NC(=O)[C@@H]1CCCN1C(=O)[C@@H]1CSSC[C@H](NC(=O)[C@H](Cc2ccccc2)NC(=O)CN2CCN(CC(=O)O)CCN(CC(=O)O)CCN(CC(=O)O)CC2)C(=O)N[C@@H](Cc2ccc(O)cc2)C(=O)N[C@@H](Cc2ccccc2)C(=O)N[C@@H](CCC(N)=O)C(=O)N[C@@H](CC(N)=O)C(=O)N1` [gallium-68 labelled] is reported as 1.01 %ID/g (healthy Wistar rat, blood; intravenous, 8 MBq, 60 min, individual animals).
